Assay results pooled from the literature.
Chain of UniProt P42338 (whole entry, looked up): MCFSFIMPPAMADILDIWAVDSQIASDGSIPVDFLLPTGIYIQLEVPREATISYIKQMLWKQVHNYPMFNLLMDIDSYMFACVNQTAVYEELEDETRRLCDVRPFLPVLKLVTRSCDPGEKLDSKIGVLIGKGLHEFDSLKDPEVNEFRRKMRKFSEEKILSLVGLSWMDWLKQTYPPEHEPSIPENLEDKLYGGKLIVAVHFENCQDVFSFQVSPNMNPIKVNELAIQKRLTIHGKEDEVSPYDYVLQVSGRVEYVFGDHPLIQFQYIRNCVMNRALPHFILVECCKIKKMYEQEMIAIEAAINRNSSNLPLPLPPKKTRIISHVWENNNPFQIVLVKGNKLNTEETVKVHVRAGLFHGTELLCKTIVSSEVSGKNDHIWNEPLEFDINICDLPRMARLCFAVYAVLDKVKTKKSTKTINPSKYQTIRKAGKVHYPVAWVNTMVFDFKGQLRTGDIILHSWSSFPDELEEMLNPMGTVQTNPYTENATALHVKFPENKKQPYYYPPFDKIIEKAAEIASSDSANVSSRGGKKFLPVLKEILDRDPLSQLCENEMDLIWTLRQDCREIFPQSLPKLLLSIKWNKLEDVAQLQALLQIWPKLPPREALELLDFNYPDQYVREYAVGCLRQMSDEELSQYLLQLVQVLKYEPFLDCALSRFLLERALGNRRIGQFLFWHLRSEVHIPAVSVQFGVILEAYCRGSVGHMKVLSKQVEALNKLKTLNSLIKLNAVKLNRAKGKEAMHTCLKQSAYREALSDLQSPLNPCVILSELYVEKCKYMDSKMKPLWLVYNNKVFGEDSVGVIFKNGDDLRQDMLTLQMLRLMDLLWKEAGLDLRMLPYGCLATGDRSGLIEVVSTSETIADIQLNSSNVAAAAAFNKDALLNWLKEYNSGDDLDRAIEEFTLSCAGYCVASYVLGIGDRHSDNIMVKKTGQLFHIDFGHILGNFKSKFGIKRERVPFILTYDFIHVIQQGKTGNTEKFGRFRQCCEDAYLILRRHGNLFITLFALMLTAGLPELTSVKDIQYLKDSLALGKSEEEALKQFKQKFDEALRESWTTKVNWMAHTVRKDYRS
Chain of UniProt P00519 (whole entry, looked up): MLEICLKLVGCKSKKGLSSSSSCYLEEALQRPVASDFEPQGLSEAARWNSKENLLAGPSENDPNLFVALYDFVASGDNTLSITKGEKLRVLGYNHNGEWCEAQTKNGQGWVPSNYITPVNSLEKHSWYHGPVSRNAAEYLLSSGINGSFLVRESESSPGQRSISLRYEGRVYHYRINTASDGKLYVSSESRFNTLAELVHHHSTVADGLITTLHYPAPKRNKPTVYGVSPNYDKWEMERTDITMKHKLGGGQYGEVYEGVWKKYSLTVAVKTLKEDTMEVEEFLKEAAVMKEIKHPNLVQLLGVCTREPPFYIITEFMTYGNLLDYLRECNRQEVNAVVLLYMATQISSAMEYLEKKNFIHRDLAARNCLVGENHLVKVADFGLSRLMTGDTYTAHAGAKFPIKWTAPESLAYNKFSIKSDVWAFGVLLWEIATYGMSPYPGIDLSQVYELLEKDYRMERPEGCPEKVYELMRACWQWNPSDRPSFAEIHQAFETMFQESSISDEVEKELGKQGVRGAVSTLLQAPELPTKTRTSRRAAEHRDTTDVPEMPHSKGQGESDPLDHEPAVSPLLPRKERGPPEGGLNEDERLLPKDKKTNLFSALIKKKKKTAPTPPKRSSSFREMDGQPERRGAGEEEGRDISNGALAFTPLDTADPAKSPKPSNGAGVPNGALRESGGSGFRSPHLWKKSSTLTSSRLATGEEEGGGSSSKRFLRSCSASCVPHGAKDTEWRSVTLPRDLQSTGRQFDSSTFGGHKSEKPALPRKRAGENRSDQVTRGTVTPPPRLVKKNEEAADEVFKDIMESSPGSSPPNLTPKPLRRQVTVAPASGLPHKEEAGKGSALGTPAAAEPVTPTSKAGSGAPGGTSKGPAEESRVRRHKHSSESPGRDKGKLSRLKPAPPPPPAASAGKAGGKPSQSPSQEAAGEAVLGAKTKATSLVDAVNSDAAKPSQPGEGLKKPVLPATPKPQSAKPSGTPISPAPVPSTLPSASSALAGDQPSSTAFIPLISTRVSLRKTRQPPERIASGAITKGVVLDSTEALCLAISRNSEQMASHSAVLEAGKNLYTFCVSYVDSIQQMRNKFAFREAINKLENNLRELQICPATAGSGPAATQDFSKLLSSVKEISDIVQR
Chain of UniProt Q04912 (whole entry, looked up): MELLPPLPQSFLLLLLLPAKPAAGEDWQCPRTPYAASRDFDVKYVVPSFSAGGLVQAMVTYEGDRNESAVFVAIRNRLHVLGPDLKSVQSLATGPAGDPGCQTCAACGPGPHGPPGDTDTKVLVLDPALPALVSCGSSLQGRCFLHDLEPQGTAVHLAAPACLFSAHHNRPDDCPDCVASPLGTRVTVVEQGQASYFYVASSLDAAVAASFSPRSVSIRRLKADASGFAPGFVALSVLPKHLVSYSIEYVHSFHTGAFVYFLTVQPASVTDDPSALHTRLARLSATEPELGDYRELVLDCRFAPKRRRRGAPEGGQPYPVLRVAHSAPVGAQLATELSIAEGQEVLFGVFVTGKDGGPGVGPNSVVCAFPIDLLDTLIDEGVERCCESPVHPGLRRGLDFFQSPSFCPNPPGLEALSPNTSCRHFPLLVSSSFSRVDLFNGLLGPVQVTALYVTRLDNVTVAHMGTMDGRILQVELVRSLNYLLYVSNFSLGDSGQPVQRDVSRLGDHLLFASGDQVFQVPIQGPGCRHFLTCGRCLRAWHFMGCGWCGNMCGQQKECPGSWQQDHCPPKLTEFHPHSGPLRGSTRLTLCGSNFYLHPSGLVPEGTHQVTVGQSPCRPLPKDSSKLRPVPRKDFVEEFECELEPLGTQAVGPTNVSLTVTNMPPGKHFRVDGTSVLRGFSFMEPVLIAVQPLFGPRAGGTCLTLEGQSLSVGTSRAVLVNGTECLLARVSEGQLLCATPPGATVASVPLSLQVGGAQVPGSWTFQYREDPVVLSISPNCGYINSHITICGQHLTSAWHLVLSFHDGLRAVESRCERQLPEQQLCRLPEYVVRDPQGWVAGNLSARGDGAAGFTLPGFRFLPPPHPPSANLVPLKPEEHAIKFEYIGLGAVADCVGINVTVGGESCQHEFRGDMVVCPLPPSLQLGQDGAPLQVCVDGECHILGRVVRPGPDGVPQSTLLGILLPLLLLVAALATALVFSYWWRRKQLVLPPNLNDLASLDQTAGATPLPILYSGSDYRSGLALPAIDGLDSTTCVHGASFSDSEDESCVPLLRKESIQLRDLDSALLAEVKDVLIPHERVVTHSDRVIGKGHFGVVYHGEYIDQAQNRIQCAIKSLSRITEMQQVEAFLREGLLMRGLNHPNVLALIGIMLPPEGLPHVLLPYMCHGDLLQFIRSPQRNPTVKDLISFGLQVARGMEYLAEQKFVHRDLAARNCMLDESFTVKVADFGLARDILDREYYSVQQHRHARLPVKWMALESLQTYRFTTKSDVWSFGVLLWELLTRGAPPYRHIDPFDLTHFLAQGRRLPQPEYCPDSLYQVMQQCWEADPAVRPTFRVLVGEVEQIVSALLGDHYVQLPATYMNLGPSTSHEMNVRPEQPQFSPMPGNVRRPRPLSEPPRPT
Chain of UniProt Q14004 (whole entry, looked up): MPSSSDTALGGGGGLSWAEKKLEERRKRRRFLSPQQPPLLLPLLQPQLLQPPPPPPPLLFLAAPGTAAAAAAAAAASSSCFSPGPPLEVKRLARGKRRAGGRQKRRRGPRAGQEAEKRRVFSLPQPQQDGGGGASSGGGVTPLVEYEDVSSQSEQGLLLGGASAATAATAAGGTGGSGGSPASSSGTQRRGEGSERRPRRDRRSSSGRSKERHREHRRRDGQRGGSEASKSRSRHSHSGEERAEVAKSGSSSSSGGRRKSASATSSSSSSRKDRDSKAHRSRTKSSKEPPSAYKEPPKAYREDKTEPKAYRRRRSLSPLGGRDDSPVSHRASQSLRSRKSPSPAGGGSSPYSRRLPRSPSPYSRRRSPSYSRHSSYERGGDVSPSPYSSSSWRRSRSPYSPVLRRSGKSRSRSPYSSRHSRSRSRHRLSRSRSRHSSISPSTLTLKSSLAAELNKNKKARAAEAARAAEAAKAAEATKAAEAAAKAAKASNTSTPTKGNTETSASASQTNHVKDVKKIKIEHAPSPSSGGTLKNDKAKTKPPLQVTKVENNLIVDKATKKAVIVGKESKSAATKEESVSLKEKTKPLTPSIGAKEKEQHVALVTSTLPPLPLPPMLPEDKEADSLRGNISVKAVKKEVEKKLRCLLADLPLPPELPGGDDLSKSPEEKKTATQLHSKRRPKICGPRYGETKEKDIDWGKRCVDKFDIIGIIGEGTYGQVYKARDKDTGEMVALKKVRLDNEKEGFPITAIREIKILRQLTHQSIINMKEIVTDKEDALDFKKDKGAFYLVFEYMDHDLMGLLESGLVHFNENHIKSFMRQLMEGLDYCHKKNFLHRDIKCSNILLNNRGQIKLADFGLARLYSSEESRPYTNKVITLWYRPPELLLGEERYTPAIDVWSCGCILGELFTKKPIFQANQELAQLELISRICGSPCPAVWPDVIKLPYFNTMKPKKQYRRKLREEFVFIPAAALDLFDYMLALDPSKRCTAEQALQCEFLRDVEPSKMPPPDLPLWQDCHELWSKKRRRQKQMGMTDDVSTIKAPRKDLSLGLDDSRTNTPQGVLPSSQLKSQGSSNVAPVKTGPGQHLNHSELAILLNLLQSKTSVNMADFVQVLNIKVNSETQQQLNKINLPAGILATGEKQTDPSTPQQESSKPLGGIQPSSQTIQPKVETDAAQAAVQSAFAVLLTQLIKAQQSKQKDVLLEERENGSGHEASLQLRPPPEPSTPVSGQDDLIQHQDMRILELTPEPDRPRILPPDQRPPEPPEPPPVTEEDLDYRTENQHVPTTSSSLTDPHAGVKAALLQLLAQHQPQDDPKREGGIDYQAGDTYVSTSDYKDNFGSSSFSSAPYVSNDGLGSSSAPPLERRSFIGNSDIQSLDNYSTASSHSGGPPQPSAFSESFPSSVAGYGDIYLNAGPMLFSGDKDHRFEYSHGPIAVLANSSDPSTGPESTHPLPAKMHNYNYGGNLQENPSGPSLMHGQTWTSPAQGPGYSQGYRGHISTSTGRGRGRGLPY

C[C@@H](O[C@H]1OCCN(Cc2n[nH]c(=O)[nH]2)[C@H]1c1ccc(F)cc1)c1cc(C(F)(F)F)cc(C(F)(F)F)c1 — IC50 (Human immunodeficiency virus 1; viral replication, ELISA; human PBMC, BAL; 7 days): 5.4 µM
CC1=C(/C=C/C(C)=C/C=C/C(C)=C/C=C/C=C(C)/C=C/C=C(C)/C=C/C2=C(C)CCCC2(C)C)C(C)(C)CCC1 — IC50 (Trypanosoma cruzi; parasite growth, absorbance; Vero, TULAHUEN; 96 h, intracellular, amastigote): 49.4 µM
Cc1cc([C@@H](C)Nc2ccccc2C(=O)O)c2nc(N3CCC(F)(F)CC3)c(C#N)c(=O)n2c1 — remaining binding (Tyrosine-protein kinase ABL1, phosphorylated (ABL1, Homo sapiens, UniProt P00519); binding, competition with immobilised ligand; 10 µM): 100%
CC1=C(Cc2cn(CC#N)nn2)C(=O)c2ccccc2C1=O — IC50 (Schistosoma mansoni; parasite growth; 72 h, larva): 1.54 µM
COC(=O)Nc1nc2cc(C(=O)c3ccc(F)cc3)ccc2[nH]1 — IC50 (Cryptococcus neoformans; microbial growth, broth dilution; 72 h): 0.625 µM
CNc1ncc2c(/C=C/C(=O)N3CCC(OC)CC3)nn(Cc3cccc(C(F)(F)F)c3)c2n1 — remaining activity (Cyclin-dependent kinase 13, with cyclin K (CDK13, Homo sapiens, UniProt Q14004); enzyme activity, inhibitor, radiometric; 1 µM): 108%
C=CC(=O)N1CCC(COCC(=O)N2CCN(c3nc(-c4cnc(N)nc4C(F)F)nc(N4CCOC[C@@H]4C)n3)CC2)CC1 — remaining binding (PIK3CB (Homo sapiens, UniProt P42338); binding, competition with immobilised ligand; 1 µM): 0.55%
COC(=O)Nc1nc2ccc(C(=O)c3ccccc3)cc2[nH]1 — IC50 (Cryptococcus neoformans; microbial growth, broth dilution; 72 h): 0.312 µM
CC1=C(Cn2cc(CBr)nn2)C(=O)c2ccccc2C1=O — IC50 (Schistosoma mansoni; parasite growth; 72 h, larva): 1.02 µM
COc1cc(-c2cncc3c2CN(C)Cc2cc(N4CCNCC4)ccc2-3)cc(OC)c1OC — remaining activity (MST1R (Homo sapiens, UniProt Q04912); enzyme activity, inhibitor; 1 µM): 102%
CO[C@H]1/C=C/O[C@@]2(C)Oc3c(C)c(O)c4c(O)c(c(/C=N/N5CCN(C6CCCC6)CC5)c(O)c4c3C2=O)NC(=O)/C(C)=C\C=C\[C@H](C)[C@H](O)[C@@H](C)[C@@H](O)[C@@H](C)[C@H](OC(C)=O)[C@@H]1C — IC50 (Trypanosoma cruzi; parasite growth, absorbance; Vero, TULAHUEN; 96 h, intracellular, amastigote): 5.88 µM
O=C(O)/C=C/c1ccc(O)c(O)c1 — IC50 (Human immunodeficiency virus 1; viral replication, inhibitor; TZM-bl, NL43; 48 h): 97.1 µM

Some of these lines once more:
CNc1ncc2c(/C=C/C(=O)N3CCC(OC)CC3)nn(Cc3cccc(C(F)(F)F)c3)c2n1 — remaining activity (Cyclin-dependent kinase 13, with cyclin K (CDK13, Homo sapiens, UniProt Q14004); enzyme activity, inhibitor, radiometric; 1 µM): 108%
